# Measured values gathered from unrelated publications.
# Numbered parts are unrelated; each lists some results of a single study.

# Sample 1
# Target: PABPC1L2, full length, GST fusion (mouse, UniProt A0ABA7IW68)
# Technique: RNAcompete
# Form: RNA
# Medium: in vitro
# Concentration: 20 nM
# Setting: 7-mer, probes averaged, single round
# Baseline: mean of 7-mers
# Direction: higher = stronger binding
# Residues (chain): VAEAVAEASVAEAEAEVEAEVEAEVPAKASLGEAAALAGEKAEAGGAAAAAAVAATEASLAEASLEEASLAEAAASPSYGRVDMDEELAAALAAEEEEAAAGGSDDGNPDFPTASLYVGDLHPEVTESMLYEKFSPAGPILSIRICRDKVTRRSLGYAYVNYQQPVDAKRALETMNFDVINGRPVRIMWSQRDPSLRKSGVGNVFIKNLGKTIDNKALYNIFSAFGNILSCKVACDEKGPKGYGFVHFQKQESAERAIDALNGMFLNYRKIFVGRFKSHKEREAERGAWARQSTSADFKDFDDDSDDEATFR
Oligonucleotide,7-mer Z-score
AGUACUC,-0.112
CGGUCCU,-0.215
CGGGAUC,0.00254

# Sample 2
# Target: Interferon regulatory factor 5, full length, phosphomimetic (IRF5, Homo sapiens, UniProt Q13568-2, residues 1-514, K96S/S451D/S453D/S456D/S462D)
# Technique: protein-binding microarray
# Form: double-stranded DNA, one strand shown
# Medium: in vitro
# Concentration: 250 nM
# Setting: 60-bp whole probe
# With: salmon DNA 0.4 mg/ml
# Baseline: random background probes
# Direction: higher = stronger binding
Oligonucleotide,log fluorescence
GCCTAGCACGACGCACTGGGGTATCGAGACGTGCTAGTCTTGATTCGCTTGACGCTGCTG,0.0409 z-score
GCCTAGCACTACCTTTTCACTTTACACACGTGCTAGGTCTTGATTCGCTTGACGCTGCTG,2.19 z-score
GCCTAGCACGCTTCTACACAGAGCATGGGGTGCTAGGTCTTGATTCGCTTGACGCTGCTG,-0.266 z-score

# Sample 3
# Target: Sal-like protein 4, full length isoform B (SALL4, Homo sapiens, UniProt Q9UJQ4-2, residues 1-616)
# Technique: universal PBM
# Form: double-stranded DNA, one strand shown
# Medium: in vitro
# Concentration: not given
# Setting: 8-mer, flanks averaged, mean of replicates
# Direction: higher = stronger binding
# Construct (chain): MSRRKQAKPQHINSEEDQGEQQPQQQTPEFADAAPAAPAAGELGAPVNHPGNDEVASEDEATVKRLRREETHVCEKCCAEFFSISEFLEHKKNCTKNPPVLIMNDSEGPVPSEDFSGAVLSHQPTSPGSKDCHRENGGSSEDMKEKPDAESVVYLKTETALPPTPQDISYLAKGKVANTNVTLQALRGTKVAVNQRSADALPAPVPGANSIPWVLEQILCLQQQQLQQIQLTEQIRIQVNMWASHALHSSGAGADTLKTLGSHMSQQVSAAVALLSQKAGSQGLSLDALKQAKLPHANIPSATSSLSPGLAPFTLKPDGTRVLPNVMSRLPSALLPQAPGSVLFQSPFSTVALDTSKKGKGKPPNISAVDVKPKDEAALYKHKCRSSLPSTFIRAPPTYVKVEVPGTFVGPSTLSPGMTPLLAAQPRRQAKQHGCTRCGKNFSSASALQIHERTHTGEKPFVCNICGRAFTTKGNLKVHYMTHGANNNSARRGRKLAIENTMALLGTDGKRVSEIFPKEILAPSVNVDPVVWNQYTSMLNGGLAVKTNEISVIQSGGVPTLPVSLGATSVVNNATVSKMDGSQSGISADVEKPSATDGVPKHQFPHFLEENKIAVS
Oligonucleotide,E-score
AAAATTGT,0.391
GCGCACTA,-0.128
AGTTCCCG,-0.286
ACGATGAA,0.139

# Further values, each from its own experiment
Molecule,target,assay,test system,conditions,how to read,endpoint,result
"PhoQ, residues 284 288 289 292 302 303 ALSMDL","PhoP, residues 12 14 15 18 19 FWNTL (Escherichia coli, UniProt P23836)","Sort-seq, refers to: YFP reporter",E. coli,"PhoQ-PhoP variant library, with: 10 µM Mg2+","baseline: high Mg2+ state, higher = stronger signaling",fold induction,17.3

# For quick reference, copied from above (sample 1):
Oligonucleotide,7-mer Z-score
CGGGAUC,0.00254
